# Measurements from different studies.
# Every numbered part comes from another study and shows a few of its results, in no order. Substitutions count along the parent as printed.

# Study 1
# Target: CCNE1, cyclin fold, Cln2 fusion (human)
# Method: yeast growth competition, sequencing
# Medium: yeast
# Setting: weak parent motif
# Reference: not given
# Reading: higher = stronger binding
# Parent: RB1 docking peptide (human); PKPLKKLRFDIEG
Variant,normalised enrichment score
PKPLAKLRFDIEG [K5A],-0.347
PKPLKKLRFDIPG [E12P],0.452
PKPLKKLRFDIQG [E12Q],0.295
PKPLKKLVFDIEG [R8V],0.546
PKPLKKLRPDIEG [F9P],-0.194
PKPLKKYRFDIEG [L7Y],-0.235
PRPLKKLRFDIEG [K2R],0.862
KKPLKKLRFDIEG [P1K],0.324
PKPYKKLRFDIEG [L4Y],0.679
PKPLKKLRFDIEM [G13M],-0.203
PKPVKKLRFDIEG [L4V],-0.2
PKPLKKNRFDIEG [L7N],0.0196
PKPNKKLRFDIEG [L4N],0.375
PKCLKKLRFDIEG [P3C],2.05
PKVLKKLRFDIEG [P3V],0.0568
PKPLKKLMFDIEG [R8M],0.635
PKPHKKLRFDIEG [L4H],-0.24
PKDLKKLRFDIEG [P3D],0.719
PKPLKKLRFDTEG [I11T],-0.914
PSPLKKLRFDIEG [K2S],0.0619
PKPLKKLRRDIEG [F9R],-0.117
PKPLKKWRFDIEG [L7W],0.773
PKPLKKLRFDIFG [E12F],0.891
PKPLKKLEFDIEG [R8E],0.309
PKPLKKLRFDIEP [G13P],0.263

# Study 2
# Target: Fragile X messenger ribonucleoprotein 1, C-terminal low-complexity region (Fmr1, Mus musculus, UniProt P35922)
# Method: RNA Bind-n-Seq
# Molecule type: RNA
# Medium: in vitro
# Tested at: 200 nM
# Setting: whole 134-nt RNA, ends assumed
# With: 150 mM KCl
# Reference: input library
# Reading: higher = stronger binding
# Shared flanks, not repeated: GGGAGUUCUACAGUCCGACGAUC … UGGAAUUCUCGGGUGUCAAGG
Sequence,log2 enrichment
UGGGAGGUGGAUUUUGUUUAUUUUUUUAGCUCAUCUCCAGGGGUGGGAAUUUUUUUUUAAUAUGUGUCAUGAAUAAAGUUGUUUUUGAAA,0.203
AGUCCUGUGCUACACAUCGUAUGUACCGAAUCGGCCCCCGGGCCCCCGGCCCCCGGGGAAAGUAUUAUGUUACGCCGUUCGGAUCUGCAC,-0.0468
GCAGGAAGUAAAAACAAAUGGAAACGCUUCGGAUAGUGGCAGGGGUGGGGGUUGCUAAGGAAAGGGUGGGAUGGGAGUGGGUAAAGAGUU,0.203
UCCUCAAGUCCUGUGCUACACAUCGUAUGUACCGAAUCGGAGGGAGGAGGGAAAGUAUUAUGUUACGCCGUUCGGAUCUGCACUUCCAGC,-0.166
CUGUGCUACACAUCGUAUGUACCGAAUCGGUUUUUUUGGGUUUUUUUGGGGUUUUUUUGGGAAAGUAUUAUGUUACGCCGUUCGGAUCUG,-0.762
UCCUGUGCUACACAUCGUAUGUACCGAAUCGGAAAAAAGGGGAAAAAAGGAAAAAAGGGAAAGUAUUAUGUUACGCCGUUCGGAUCUGCA,-0.423
UCCUGUGCUACACAUCGUAUGUACCGAAUCGGAAAAAAGGAAAAAAGGGAAAAAAGGGGAAAGUAUUAUGUUACGCCGUUCGGAUCUGCA,-0.583
CUGUGCUACACAUCGUAUGUACCGAAUCGGGGCCCCCCCGGGGCCCCCCCGGCCCCCCCGGGAAAGUAUUAUGUUACGCCGUUCGGAUCU,-1.2
CCUCAAGUCCUGUGCUACACAUCGUAUGUACCGAAUCGGAGGAAAGGAAAGGAAAGUAUUAUGUUACGCCGUUCGGAUCUGCACUUCCAG,0.108
CACAGACAACACGCACCCACACAGACACAGAGGGAAGGGGUUGGGAUGGGGAAAGGGUGCACAGCAGGGCGGGGUAGGACCCCAGCCCCU,1.16
UGGCCCUGGUGGCAUGCGGGGAGGAAGAGGUGGCCUCAUGGAUCGUGGUGUUCCCGGUGGAAUGUUCAGAGGUGGCCGUGGUGGAGACAG,0.111
CUGUGCUACACAUCGUAUGUACCGAAUCGGGCCCCCCCGGGCCCCCCCGGCCCCCCCGGGGAAAGUAUUAUGUUACGCCGUUCGGAUCUG,-1.04
AAGUCCUGUGCUACACAUCGUAUGUACCGAAUCGGCCCCGGGGCCCCGGGGCCCCGGAAAGUAUUAUGUUACGCCGUUCGGAUCUGCACU,-0.0567
UGGGAGGUGGAUUUUGUUUAUUUUUUUAGCUCAUUUCCAGGGGUGGGAAUCUUUUUUUAAUAUGUGUCAUGAAUAAAGUUGUUUUUGAAA,0.379

# Study 3
# Target: XBP1, bZIP domain (human)
# Method: DHFR protein complementation
# Medium: yeast
# Setting: single substitutions, most at no-binding floor
# Reference: wild-type JUN-FOS pair
# Reading: higher = stronger binding
# Parent: JUN, bZIP domain (human); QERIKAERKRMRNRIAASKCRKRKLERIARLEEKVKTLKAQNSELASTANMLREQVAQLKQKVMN; partner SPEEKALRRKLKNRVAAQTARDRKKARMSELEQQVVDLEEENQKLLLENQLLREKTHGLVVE
Variant,binding fitness [natural log]
K39F,-1.38
I28L,-0.702
A29N,-0.949
Q41E,-0.705
R53C,-1.43
E33L,-1.01
R53F,-1.28
A46S,-0.88
R53H,-1.49
R30E,-0.0629
L31C,-1.45
L52V,-1.36
S47G,-0.981
A40M,-0.764
V35Q,-1.54
K39A,-1.28
A40K,-0.473
A40L,-0.881
T37P,-1.51
V35M,-1.43
T37V,-0.655

# Study 4
# Target: ABI1, truncated, D143A, DHFR fusion (Arabidopsis thaliana)
# Method: DHFR PCA, deep sequencing
# Medium: yeast
# Setting: methotrexate growth selection, single substitutions
# With: (+)-ABA 0.11 µM
# Reference: wild-type fitted maximum
# Reading: higher = stronger binding
# Parent: PYL1, truncated, DHFR fusion (Arabidopsis thaliana); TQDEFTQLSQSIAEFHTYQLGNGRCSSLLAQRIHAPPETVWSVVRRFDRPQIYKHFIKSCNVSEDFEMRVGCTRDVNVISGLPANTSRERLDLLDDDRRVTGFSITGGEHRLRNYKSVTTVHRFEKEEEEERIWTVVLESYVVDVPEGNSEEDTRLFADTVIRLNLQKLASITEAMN
Variant,relative binding score [%]
M68H,3.82
Y141H,10.9
R98N,19.3
V76L,10.9
V143F,-7.12
A84Q,24.9
C25L,6.24
K126F,17.4
I133G,48.2
E38G,1.8
L94Q,-15.5
V161P,5.16
E127P,45.6
R111Q,2.47
T120F,-9.44
R98D,-7.8
N61F,26.1
K126L,29
E151R,23.3
E4Q,17.1

# Study 5
# Target: RNA binding protein fox-1 homolog 2, RRM domain, GST-SBP tag (RBFOX2, Homo sapiens, UniProt O43251-10, residues 100-194)
# Method: RNA Bind-n-Seq
# Molecule type: RNA
# Medium: in vitro
# Tested at: 365 nM
# Setting: natural RNA segment, single round, ends assumed
# Reference: no-protein control
# Reading: higher = stronger binding
# Shared flanks, not repeated: GGGAGUUCUACAGUCCGACGAUC … UGGAAUUCUCGGGUGCCAA
# Target sequence (chain): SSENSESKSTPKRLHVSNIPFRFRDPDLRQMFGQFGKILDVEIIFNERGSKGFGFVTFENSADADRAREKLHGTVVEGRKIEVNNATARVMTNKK
Sequence,RBNS enrichment (R)
UAGCCAAGUAGGUUCACUGAGGUUCCAGACUCUUCCACUGGCCUGGGGCCAUGGACAUCUUGUGAGCCCUGCCCUCUGGCUGUAGUUGUCUGAGUGUGAGGGGUUUCAUU,0.306
AGCUGAGGUCUAGGUCUUCUUAAAGGUCAAGUCUGCUCUCCCUCGCCUAAAGUGCAGCAGCAGCUCCUCUCAAGCUCACUCUCUAGGUCUCCAGGGUAGGAGUGUUUUUC,0.329
AUCUCUAUACAGGCAGUUAUUUUAUUUUUAGACUGUGUUAGAAUGUCUGGACUUAGCUUCAAACUCUAUGGAUUCGGCCUUGGUAGGGAAUUGUACCACCACUUGGUUUG,0.809
AAAAUCUGCUAAACAUUUGCAAUCUUACAUUUGUAUUUUAAUACCAGAGUGAGGUUUAGCUUUGUCUUUCUGGGAUUCUCAGGUUCCACAGUAAUUACAAGCUGACUUUU,0.434
CAGGACAGCAACUUCAGGGAUCUGUAAAGAUCAUUUAAAUGGAGUGCUCAUCUCAUUGAGGAGCAGAUUAAUUUUGGGUAAUAAGUGUGAUCAUUGUUGAACUUCAGCUC,0.349
AAGAUCCCAACCUUCCGAUCUCUGCCUACUCUCAGACUUGGCCAGCCCUCUUGCCUGUCAUCCCAACCCUGCUGCUUCUCUGUAAAAGGUUGUUUCUUUACUAGCAGAAA,3.24
GGCACUGCGCCCCACUGCCAGCUGCCCCUCCUGGGAGGGCCCGGGAGGAGGGUGCCACCCUCUCCCUGCCAGGGGCCUGGGGACCCUCUCCCUGGCUGCCUCAGGCUUCU,0.252
GGCAGCGUGACUCCUGCUGUCCUCCAGCCUUUCAGAUGAGAUCCUAUUCCAGCCAAAUGCAGGGAAACACUUUAUUUUGUUUGUUUUAGGUUUUGUUUUUCCUUGAGAGC,0.588
AAAGCACUUGAUUAGUUUUUCAAGGCGUACCAUCACAAAGAUGCUUUCCUGCAGAGUUCUUUGUAUCAACAGCCUAUGGUUGAGAUGUUUUCUCAUUUCCUGUAGAGAGA,0.302
CAUCUUCAGCAUCAUUGCAUUAAAGUGGUGUAAUCUCCUUCUCUACAUCUGUUGUCAGAGCCACUGAGUGCUGUGCUGCUCGACGUGAGGGUGAAAUGAUUGACUUGUGA,0.569
AAGCAGAAACUCUGAAGAAAAGGAUUAUUUAAAGGACUCUAUGGGGAGAAAGAGAAGGCAACUCCUCCUUACCCCCCACACUGGUAAUCUUUCCAACCAGCAUCCCAGAC,0.264
CAAAACCUGGAGACGCAGCUACUGGAAUGGUGUUUUGUGAGACUUCCAAGGCUGGAAAGACACAGUCAUGGAUGUACUGUCUGAGCAUAGAGAACCCGGGCUUGAGUGAG,6.5

# Excerpt of the above (study 3):
Variant,binding fitness [natural log]
E33L,-1.01
A40M,-0.764
R30E,-0.0629
K39A,-1.28
S47G,-0.981
T37V,-0.655
